# Published values gathered from unrelated publications.
# Compare with care: the assays were run in different laboratories. “And” joins repeats or separate records; there may be more than shown. ± marks the error that the study gave.
SMILES,target,test,system,conditions,IC50
O=C(/C=C/c1ccccc1)c1ccccc1O,"HDAC class I, II and IV (human)","enzyme activity, inhibitor, fluorometric",K562 cell extract,"1 h, 37 °C",> 1000 µM
C/C=C/c1ccc(OC(C)=O)c(OC)c1,anti-eugenol monoclonal antibody mouse,"antibody binding, indirect competitive ELISA",,"antibody 0.25 µg/mL, together with: coating antigen Eug-222-OVA 0.5 µg/mL",0.0219 µg/mL
Cc1ccc(CNC(=O)C(CCc2ccccc2)NC(=O)C(NC(=O)c2ccc(OCc3ccc(C(C)(C)C)cc3)cc2)C(C)O)cc1 (stereo not drawn),proteasome β5 site,Proteasome-Glo,WSUDLCL2,1 h,0.38 µM
COc1ccc(/C=C/C(=O)c2c(O)cc(OC)cc2O)cc1,"HDAC class I, II and IV (human)","enzyme activity, inhibitor, fluorometric",K562 cell extract,"1 h, 37 °C",> 1000 µM
CC(C)NC(=O)[C@H](CCc1ccccc1)NC(=O)[C@H](CC(=O)NCC(C)(C)C)NC(=O)CCc1ccccc1,proteasome β5 site,Proteasome-Glo,Karpas-1106P,1 h,0.87 µM
N=C(N)c1ccc2nc(-c3ccc(-c4nc5ccc(C(=N)N)cc5[nH]4)[se]3)[nH]c2c1,PU.1,"reporter gene, inhibitor, item: EGFP",PU.1-expressing HEK293 cells,,~3 µM
CCCCC/C=C/C(=O)CCc1ccc(O)c(OC)c1,mouse mAb 1-F12,"antibody binding, indirect competitive ELISA",,together with: coating antigen 2-OVA,> 4 µg/mL
COc1cccc(/C=C/C(=O)c2ccccc2O)c1OC,"HDAC class I, II and IV (human)","enzyme activity, inhibitor, fluorometric",K562 cell extract,"1 h, 37 °C",> 1000 µM
CCC(=O)CCCCC[C@@H]1NC(=O)[C@H](C)n2nncc2[C@H](CC(C)C)NC(=O)[C@H](Cc2c[nH]c3ccccc23)NC1=O,histone deacetylase,"enzyme activity, inhibitor, fluorescence",HeLa nuclear extract,,> 10 µM
COc1cc(CCC(C)=O)ccc1O,mouse mAb 1-F12,"antibody binding, indirect competitive ELISA",,together with: coating antigen 1-OVA,0.68 µg/mL
CCC(=O)CCCCC[C@@H]1NC(=O)[C@@H](C)n2nncc2[C@H]([C@@H](C)CC)NC(=O)[C@H](Cc2c[nH]c3ccccc23)NC1=O,histone deacetylase,"enzyme activity, inhibitor, fluorescence",HeLa nuclear extract,,< 0.1 µM and ≤ 0.1 µM
O=C(CCc1ccc(O)cc1)c1c(O)cc(O)cc1O,"HDAC class I, II and IV (human)","enzyme activity, inhibitor, fluorometric",K562 cell extract,"1 h, 37 °C",> 1000 µM
Oc1ccc(-c2cc(-c3ccc(OCCN4CCCCC4)cc3)n(-c3ccc(O)cc3)n2)cc1,TLR2 (mouse),"TNF-alpha production, inhibitor",RAW264.7,"6 h, together with: Pam3Cys 100 ng/mL",11.2 ± 0.3 µM
c1cc2nc(-c3ccc(-c4nc5ccc(C6=NCCN6)cc5[nH]4)[se]3)[nH]c2cc1C1=NCCN1,PU.1,"reporter gene, inhibitor, item: EGFP",PU.1-expressing HEK293 cells,24 h,0.575 µM
O=C(CCc1ccc(O)cc1)c1c(O)cc(O)cc1OC1OC(CO)C(O)C(O)C1O (stereo not drawn),"HDAC class I, II and IV (human)","enzyme activity, inhibitor, fluorometric",K562 cell extract,"1 h, 37 °C",> 1000 µM
C=CC(=O)N1[C@H](c2ccc3c(c2)OCO3)c2[nH]c3ccccc3c2C[C@@H]1C(=O)N1CCN2CCOC[C@@H]2C1,NLuc-N112C-CCNE1,"probe engagement, gel-based ABPP",HEK293T lysate,"2 h, together with: probe YZ-01-A 10 µM",> 20 µM
O=c1c(O)c(-c2ccc(O)cc2O)oc2c(Br)c(O)c(Br)c(O)c12,BSA glycation,fluorescence,,together with: methylglyoxal,10.1 to 100 µM
O=C(/C=C/c1ccc(O)c(O)c1)c1c(O)cc(O)cc1O,"HDAC class I, II and IV (human)","enzyme activity, inhibitor, fluorometric",K562 cell extract,"1 h, 37 °C",> 1000 µM

# For quick reference, copied from above:
SMILES,target,test,system,conditions,IC50
O=C(CCc1ccc(O)cc1)c1c(O)cc(O)cc1OC1OC(CO)C(O)C(O)C1O (stereo not drawn),"HDAC class I, II and IV (human)","enzyme activity, inhibitor, fluorometric",K562 cell extract,"1 h, 37 °C",> 1000 µM
